# Assay results collected from several papers.
# Lines come from different studies, so protocols differ. ± gives the spread as reported.
# Target: Cytochrome P450 2C19 (CYP2C19, Homo sapiens, UniProt P33261)
# UniProt P33261, sequence (whole entry, looked up): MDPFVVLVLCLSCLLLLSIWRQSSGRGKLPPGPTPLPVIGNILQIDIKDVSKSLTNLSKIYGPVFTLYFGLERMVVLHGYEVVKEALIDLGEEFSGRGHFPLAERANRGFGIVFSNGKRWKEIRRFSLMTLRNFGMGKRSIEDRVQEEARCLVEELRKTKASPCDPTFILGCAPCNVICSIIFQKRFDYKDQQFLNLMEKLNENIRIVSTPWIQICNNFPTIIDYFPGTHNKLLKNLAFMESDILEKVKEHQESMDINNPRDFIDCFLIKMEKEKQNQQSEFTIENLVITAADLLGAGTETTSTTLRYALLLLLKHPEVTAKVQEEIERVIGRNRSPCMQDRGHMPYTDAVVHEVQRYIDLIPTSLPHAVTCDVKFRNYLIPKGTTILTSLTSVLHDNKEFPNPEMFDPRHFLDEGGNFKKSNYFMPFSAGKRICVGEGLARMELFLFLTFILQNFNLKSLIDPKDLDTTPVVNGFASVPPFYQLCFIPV
Compound,test,test system,conditions,endpoint,result
O=c1[nH]c(=O)c(Cc2cccc(C(F)(F)F)c2)c([C@H]2CC[C@H](c3ccccc3)CC2)[nH]1,,"human, plasma","oral, 600 mg, day 10, geometric mean, together with: fluvoxamine",AUC(0-last),11700 ng·h/mL
COc1ccc2[nH]c([S+]([O-])Cc3ncc(C)c(OC)c3C)nc2c1 (stereo not drawn),substrate,"human, both sexes, plasma","oral, 20 mg, cocktail probe, control day",AUC(0-inf),1.2 ± 0.6 µM·h
COc1cc(CCc2cnc3ccn(S(=O)(=O)c4c[nH]cn4)c3n2)cc(OC)c1,"enzyme activity, inhibitor","human, liver microsomes","10 µM, 20 min, pH 7.4",inhibition,99%
COC(=O)/C=C/C(=O)O,,human liver microsomes,"up to 750 µM, 10 min, together with: S-mephenytoin",maximum time-dependent inhibition,28%
OC(Cn1cncn1)(Cn1cncn1)c1ccc(F)cc1F,"cotinine to COX formation, inhibitor",microsomes of overexpressing HEK293 cells,"10 µM, 30 min, pH 7.4, together with: cotinine 1 mM",inhibition,55%
Cc1noc(C)c1Cn1cc(N2C(=O)CN(Cc3cccc(O)c3)C2=O)cn1,"enzyme activity, inhibitor, fluorescence",Sf9,10 µM,inhibition,26%
CN1Cc2c(Cl)cc(Cl)cc2[C@H](c2cccc(S(=O)(=O)NCCOCCOCCNC(=O)NCCCCNC(=O)NCCOCCOCCNS(=O)(=O)c3cccc([C@@H]4CN(C)Cc5c(Cl)cc(Cl)cc54)c3)c2)C1,"enzyme activity, inhibitor","human, liver microsomes","30 µM, 5 min",inhibition,32.9%
CC(C)=CCc1cc(-c2coc3cc(O)ccc3c2=O)ccc1O,substrate,recombinant CYP2C19,pH 7.4,CLint,63.4 µL/min/mg
Cc1noc(C)c1Cn1cc(N2C(=O)N(Cc3cccc(O)c3)C(C)(C)C2=O)cn1,"enzyme activity, inhibitor, fluorescence",Sf9,10 µM,inhibition,11%
COc1cc(OC)c(Cl)c(CCc2cnc3ccn(S(=O)(=O)c4c[nH]cn4)c3n2)c1Cl,"enzyme activity, inhibitor","human, liver microsomes","10 µM, 20 min, pH 7.4",inhibition,99%
O=C1Nc2ccc(Cl)cc2[C@@](C#CC2CC2)(C(F)(F)F)O1,"enzyme activity, inhibitor","human, liver microsomes","50 µM, pH 7.4",inhibition,10%
CC1=N[C@]2(C(=O)CO)[C@@H](C[C@H]3[C@@H]4C[C@@H](O)C5=CC(=O)C=C[C@]5(C)[C@H]4[C@@H](O)C[C@@]32C)O1,"enzyme activity, inhibitor","human, liver microsomes",with preincubation,IC50,48 µM

# For quick reference, copied from above:
Compound,test,test system,conditions,endpoint,result
CN1Cc2c(Cl)cc(Cl)cc2[C@H](c2cccc(S(=O)(=O)NCCOCCOCCNC(=O)NCCCCNC(=O)NCCOCCOCCNS(=O)(=O)c3cccc([C@@H]4CN(C)Cc5c(Cl)cc(Cl)cc54)c3)c2)C1,"enzyme activity, inhibitor","human, liver microsomes","30 µM, 5 min",inhibition,32.9%
